Assay results collected from several papers.
Lines come from different studies, so protocols differ. Several values in a cell are separate wells, animals, samples, runs or records. Numbers after ± are the reported error.
Beta-lactamase CTX-M-14: Beta-lactamase CTX-M-14 (Escherichia coli, UniProt Q9L5C7)
ALB: Albumin (ALB, Bos taurus, UniProt P02769)
UniProt P02769, sequence (whole entry, looked up): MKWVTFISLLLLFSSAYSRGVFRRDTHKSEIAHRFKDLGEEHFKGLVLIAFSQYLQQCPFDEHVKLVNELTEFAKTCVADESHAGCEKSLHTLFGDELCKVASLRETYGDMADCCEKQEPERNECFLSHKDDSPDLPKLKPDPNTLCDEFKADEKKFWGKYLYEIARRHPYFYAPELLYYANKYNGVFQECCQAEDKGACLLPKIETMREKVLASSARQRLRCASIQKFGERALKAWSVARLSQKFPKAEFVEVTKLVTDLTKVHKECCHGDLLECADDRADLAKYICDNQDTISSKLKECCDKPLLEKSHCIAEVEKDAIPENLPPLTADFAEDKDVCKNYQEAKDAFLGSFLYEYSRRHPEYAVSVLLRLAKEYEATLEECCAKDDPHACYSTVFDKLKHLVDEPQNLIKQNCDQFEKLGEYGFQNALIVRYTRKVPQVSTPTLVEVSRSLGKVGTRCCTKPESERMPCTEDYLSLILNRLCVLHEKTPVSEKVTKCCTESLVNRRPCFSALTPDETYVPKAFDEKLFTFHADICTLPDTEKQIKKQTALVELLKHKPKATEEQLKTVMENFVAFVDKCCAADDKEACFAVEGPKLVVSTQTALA
UniProt P52732, sequence (whole entry, looked up): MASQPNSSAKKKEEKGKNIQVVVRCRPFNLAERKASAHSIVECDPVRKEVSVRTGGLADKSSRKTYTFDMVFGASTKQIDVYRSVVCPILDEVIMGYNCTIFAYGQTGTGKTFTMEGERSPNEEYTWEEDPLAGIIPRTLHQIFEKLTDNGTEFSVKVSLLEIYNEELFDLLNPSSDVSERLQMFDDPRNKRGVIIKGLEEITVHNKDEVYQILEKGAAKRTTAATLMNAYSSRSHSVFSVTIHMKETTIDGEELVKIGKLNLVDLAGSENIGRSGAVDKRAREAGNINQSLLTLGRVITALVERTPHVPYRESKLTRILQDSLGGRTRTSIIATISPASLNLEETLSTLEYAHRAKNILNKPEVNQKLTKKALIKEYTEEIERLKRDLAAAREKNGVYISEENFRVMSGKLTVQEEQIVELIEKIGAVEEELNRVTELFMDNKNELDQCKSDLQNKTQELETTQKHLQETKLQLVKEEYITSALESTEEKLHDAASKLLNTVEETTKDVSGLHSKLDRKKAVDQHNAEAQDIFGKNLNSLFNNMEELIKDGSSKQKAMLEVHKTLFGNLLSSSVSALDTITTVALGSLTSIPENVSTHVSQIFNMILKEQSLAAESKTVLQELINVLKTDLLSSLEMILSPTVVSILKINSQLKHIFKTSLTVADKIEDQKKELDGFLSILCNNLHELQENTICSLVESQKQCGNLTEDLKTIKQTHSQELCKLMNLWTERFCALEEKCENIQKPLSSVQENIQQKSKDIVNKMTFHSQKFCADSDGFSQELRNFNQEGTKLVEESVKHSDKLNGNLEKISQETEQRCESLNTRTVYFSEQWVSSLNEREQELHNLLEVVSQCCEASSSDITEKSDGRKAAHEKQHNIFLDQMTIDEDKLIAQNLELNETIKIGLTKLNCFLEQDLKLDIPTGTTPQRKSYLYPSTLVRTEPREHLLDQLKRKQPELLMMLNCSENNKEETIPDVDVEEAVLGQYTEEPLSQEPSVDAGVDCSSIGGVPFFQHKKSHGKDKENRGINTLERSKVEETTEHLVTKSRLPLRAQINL
UniProt Q9UHM6, sequence (whole entry, looked up): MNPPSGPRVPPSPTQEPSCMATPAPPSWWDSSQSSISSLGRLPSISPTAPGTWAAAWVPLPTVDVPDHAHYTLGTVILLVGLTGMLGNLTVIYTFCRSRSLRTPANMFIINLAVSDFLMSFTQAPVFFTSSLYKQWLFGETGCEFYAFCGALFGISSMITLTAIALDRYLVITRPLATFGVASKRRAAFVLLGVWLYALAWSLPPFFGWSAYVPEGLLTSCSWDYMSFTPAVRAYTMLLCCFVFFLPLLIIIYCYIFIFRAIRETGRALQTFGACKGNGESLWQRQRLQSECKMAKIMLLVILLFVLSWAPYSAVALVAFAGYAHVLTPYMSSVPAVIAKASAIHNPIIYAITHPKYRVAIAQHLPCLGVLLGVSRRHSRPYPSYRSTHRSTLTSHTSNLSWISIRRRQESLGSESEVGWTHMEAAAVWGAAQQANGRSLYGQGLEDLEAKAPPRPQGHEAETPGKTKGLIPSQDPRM
UniProt O43189, sequence (whole entry, looked up): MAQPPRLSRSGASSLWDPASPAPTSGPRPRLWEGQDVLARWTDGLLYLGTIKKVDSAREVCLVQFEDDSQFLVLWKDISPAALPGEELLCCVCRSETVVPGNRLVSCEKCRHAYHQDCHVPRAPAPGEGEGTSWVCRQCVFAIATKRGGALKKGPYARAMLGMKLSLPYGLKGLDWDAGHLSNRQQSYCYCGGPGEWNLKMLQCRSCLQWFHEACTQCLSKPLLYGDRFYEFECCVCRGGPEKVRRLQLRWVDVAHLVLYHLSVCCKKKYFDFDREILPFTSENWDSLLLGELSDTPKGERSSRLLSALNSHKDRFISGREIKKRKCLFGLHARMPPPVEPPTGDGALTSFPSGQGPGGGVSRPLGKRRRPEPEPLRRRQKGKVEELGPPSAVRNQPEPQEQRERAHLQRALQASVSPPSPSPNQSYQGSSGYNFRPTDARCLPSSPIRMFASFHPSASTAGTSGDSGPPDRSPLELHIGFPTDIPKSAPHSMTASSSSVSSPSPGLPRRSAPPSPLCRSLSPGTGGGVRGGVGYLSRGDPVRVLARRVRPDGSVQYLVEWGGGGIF
UniProt O43570, sequence (whole entry, looked up): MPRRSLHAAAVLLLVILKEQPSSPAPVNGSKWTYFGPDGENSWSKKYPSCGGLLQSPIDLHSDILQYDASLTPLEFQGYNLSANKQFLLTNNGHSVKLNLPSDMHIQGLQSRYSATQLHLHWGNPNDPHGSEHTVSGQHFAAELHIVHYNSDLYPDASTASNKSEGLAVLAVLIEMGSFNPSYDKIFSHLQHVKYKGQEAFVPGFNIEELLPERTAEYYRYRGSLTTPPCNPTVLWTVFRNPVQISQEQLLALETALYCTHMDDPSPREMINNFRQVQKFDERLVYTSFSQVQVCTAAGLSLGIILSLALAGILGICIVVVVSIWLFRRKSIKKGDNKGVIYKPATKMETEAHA
UniProt Q02790, sequence (whole entry, looked up): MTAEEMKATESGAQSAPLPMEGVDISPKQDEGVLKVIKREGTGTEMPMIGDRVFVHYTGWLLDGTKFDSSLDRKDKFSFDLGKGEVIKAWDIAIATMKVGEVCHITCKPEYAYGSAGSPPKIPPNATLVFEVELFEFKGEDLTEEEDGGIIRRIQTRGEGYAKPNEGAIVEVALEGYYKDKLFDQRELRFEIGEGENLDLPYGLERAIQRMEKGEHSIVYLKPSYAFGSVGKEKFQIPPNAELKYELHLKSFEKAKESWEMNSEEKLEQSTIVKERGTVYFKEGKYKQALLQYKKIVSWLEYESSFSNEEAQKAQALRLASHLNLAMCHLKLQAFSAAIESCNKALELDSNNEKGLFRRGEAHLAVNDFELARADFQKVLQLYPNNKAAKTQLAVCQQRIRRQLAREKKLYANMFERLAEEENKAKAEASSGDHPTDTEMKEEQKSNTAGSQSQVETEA
UniProt P14625, sequence (whole entry, looked up): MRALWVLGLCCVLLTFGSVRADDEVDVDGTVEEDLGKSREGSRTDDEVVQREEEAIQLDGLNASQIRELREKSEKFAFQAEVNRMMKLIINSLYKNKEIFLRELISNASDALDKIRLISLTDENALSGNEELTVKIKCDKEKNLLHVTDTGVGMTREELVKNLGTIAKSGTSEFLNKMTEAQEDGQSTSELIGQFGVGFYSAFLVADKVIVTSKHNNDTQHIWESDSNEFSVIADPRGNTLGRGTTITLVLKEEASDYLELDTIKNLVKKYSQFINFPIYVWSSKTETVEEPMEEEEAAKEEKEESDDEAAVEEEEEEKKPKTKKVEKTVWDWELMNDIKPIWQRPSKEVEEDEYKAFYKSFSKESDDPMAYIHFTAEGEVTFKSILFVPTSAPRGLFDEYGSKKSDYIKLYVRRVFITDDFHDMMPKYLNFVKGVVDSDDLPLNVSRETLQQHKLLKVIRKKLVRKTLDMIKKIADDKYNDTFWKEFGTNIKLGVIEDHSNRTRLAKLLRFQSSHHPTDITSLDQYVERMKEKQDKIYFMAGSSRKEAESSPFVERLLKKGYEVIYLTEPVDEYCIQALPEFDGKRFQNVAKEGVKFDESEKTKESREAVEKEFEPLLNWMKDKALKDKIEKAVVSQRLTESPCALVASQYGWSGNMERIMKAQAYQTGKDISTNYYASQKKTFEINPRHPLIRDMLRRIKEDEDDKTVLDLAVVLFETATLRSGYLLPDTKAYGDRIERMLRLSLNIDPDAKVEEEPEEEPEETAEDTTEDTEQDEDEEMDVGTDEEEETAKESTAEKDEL
UniProt P02794, sequence (whole entry, looked up): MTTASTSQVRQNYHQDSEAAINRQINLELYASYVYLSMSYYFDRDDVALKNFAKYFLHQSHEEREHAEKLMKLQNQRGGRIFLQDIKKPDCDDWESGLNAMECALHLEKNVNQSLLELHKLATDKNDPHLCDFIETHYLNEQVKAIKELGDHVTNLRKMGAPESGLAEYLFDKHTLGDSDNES

OC(Cc1cc(-c2ccc(C(O)C(F)(F)F)s2)sc1-c1ccc(-c2sc(-c3ccc(C(O)C(F)(F)F)s3)cc2CC(O)C(F)(F)F)s1)C(F)(F)F (stereo not shown) — Kd (Microtubule-associated protein tau, aggregated (MAPT, Homo sapiens, UniProt P10636); small tau aggregate binding; 96 h aggregation): 0.038 µM
NS(=O)(=O)c1cc(C(=O)NCCCC(=O)O)c(NC2CCCCC2)cc1Cl — Kd (Carbonic anhydrase 12 (CA12, Homo sapiens, UniProt O43570); binding, ITC): ≤ 0.012 µM
O=C(Nc1cccc(-c2nn[nH]n2)c1)c1cc(-c2ccsc2)cc(C(F)(F)F)c1 — Kd (Beta-lactamase CTX-M-14; surface plasmon resonance; 25 °C): 51 ± 1.2 µM
CCCCCCCC(=O)N[C@@H](CCN)C(=O)N[C@H](C(=O)N[C@@H](CCN)C(=O)N[C@H]1CCNC(=O)[C@H]([C@@H](C)O)NC(=O)[C@H](CCN)NC(=O)[C@H](CCN)NC(=O)[C@H](CSCc2ccccc2)NC(=O)[C@@H](Cc2ccccc2)NC(=O)[C@H](CCN)NC1=O)[C@@H](C)O — Kd (anti-polymyxin B mouse IgM mAb; SPR; 25 °C): 5.15 µM
CC1(C)CC(=O)C2=C(C1)Oc1ncnc(Nc3ccc(F)c(Cl)c3)c1C2c1ccccc1F (stereo not shown) — Kd (ALB; absorption titration; pH 7.2, 25 °C): 3.53 µM
CC(=O)NCCN(CC(=O)NCCN(CC(=O)NCCN(CC(=O)NCCC(N)=O)C(=O)C[C@@H](N)Cc1ccccc1)C(=O)C[C@@H](N)CCCNC(=N)N)C(=O)C[C@@H](N)CCCNC(=N)N — Kd (HIV-1 TAR RNA (18-44); fluorescence; 25 °C, together with: 100-fold excess natural tRNA): 0.5 ± 0.1 µM
C#CC[C@H](NC(=O)CNC(=O)[C@H](CO)NC(=O)[C@@H]1CCCCNC(=O)CCCC(=O)N[C@@H](CCSC)C(=O)N[C@@H](Cc2ccccc2)C(=O)N2CCC[C@H]2C(=O)N[C@@H](Cc2c[nH]cn2)C(=O)N[C@@H](CCCNC(=N)N)C(=O)N[C@@H](C(C)C)C(=O)N[C@@H]([C@@H](C)O)C(=O)N[C@@H](C)C(=O)N(C)[C@@H](C)C(=O)N1)C(=O)O — Kd (Microtubule-associated protein 1 light chain 3 alpha (Homo sapiens, UniProt Q9H492); fluorescence polarization): 0.355 ± 0.084 µM
O=C(Nc1cccc(-c2nn[nH]n2)c1)c1cc(-c2ccoc2)cc(C(F)(F)F)c1 — Kd (Beta-lactamase CTX-M-14; surface plasmon resonance; 25 °C): 26.1 ± 1.2 µM
CC(=O)NCCN(CCC(=O)NCCN(CCC(=O)NCCN(CCC(=O)NCCC(N)=O)C(=O)[C@@H](N)CCCNC(=N)N)C(=O)[C@@H](N)Cc1ccccc1)C(=O)[C@@H](N)Cc1ccccc1 — Kd (HIV-1 TAR RNA (18-44); fluorescence; 25 °C, together with: 100-fold excess 15-mer duplex DNA): 0.39 ± 0.04 µM
Cc1ccc2c(c1Br)C(O)(CC(=O)c1ccc3c(c1)OCO3)C(=O)N2 (stereo not shown) — Kd (Uncharacterized protein (Trypanosoma brucei brucei, UniProt Q386Q8); binding, surface plasmon resonance; Trypanosoma brucei; together with: UTP 500 µM): 9.3 ± 0.09 µM
CC(=O)NCCN(CCC(=O)NCCN(CCC(=O)NCCN(CCC(=O)NCCC(N)=O)C(=O)[C@@H](N)Cc1ccccc1)C(=O)[C@@H](N)CCCNC(=N)N)C(=O)[C@@H](N)CCCNC(=N)N — Kd (HIV-1 TAR RNA (18-44); fluorescence; 25 °C, together with: 100-fold excess 15-mer duplex DNA): 0.6 ± 0.1 µM
CCCCCCCCCCCCCC(=O)Nc1ccccc1SSc1ccccc1NC(=O)CCCCCCCCCCCCC — Kd (ALB; binding, fluorescence quenching; pH 7.4, 313 K): 9.35 µM
CO[C@@H]1O[C@H](CO)[C@@H](O[C@H]2O[C@H](CO)[C@@H](OP(=O)(O)O)[C@H](OP(=O)(O)O)[C@H]2O)[C@H]1OP(=O)(O)O — Kd (Inositol 1,4,5-trisphosphate-gated calcium channel ITPR1, N-terminal region (Itpr1, Rattus norvegicus, UniProt P29994, del318-332); [3H]IP3 competition binding; N-terminal fragment): 0.00192 µM
Cc1ccc(NC(=O)c2c(C)oc3ccc(O)c(CN4CCCCCC4)c23)cc1 — Kd (Bcl2 G-quadruplex DNA; surface plasmon resonance): 14 µM
CC(=O)NCCN(CCC(=O)NCCN(CCC(=O)NCCN(CCC(=O)NCCC(N)=O)C(=O)[C@@H](N)CCCNC(=N)N)C(=O)[C@@H](N)CCCNC(=N)N)C(=O)[C@@H](N)Cc1ccccc1 — Kd (HIV-1 TAR RNA (18-44); fluorescence; 25 °C, together with: 100-fold excess natural tRNA): 0.8 ± 0.15 µM
CC(C)C[C@@H]1NC(=O)[C@@H](CC(C)C)NC(=O)[C@H](CCN)NC(=O)[C@@H](NC(=O)[C@H](CCN)NC(=O)[C@@H](N)[C@@H](C)O)CCNC(=O)[C@H]([C@@H](C)O)NC(=O)[C@H](CCN)NC(=O)[C@H](CCN)NC1=O — Kd (anti-polymyxin B mouse IgM mAb; SPR; 25 °C): > 25 µM
[3H]C1CCN(S(=O)(=O)c2cc(Cl)c(OC)cc2Cl)CC1[3H] (stereo not shown) — Kd (Melanopsin (OPN4, Homo sapiens, UniProt Q9UHM6); binding, saturation binding; membranes of light-exposed CHO-Opn4 cells): 0.00028 µM
CCCCCCCCCCCCCCCC(=O)Nc1ccccc1SSc1ccccc1NC(=O)CCCCCCCCCCCCCCC — Kd (ALB; binding, fluorescence quenching; pH 7.4, 298 K, together with: ibuprofen (site II marker)): 282 µM
CCCCCCCC(=O)N[C@@H](CCN)C(=O)N[C@H](C(=O)N[C@@H](CCN)C(=O)N[C@H]1CCNC(=O)[C@H]([C@@H](C)O)NC(=O)[C@H](CCN)NC(=O)[C@H](CCN)NC(=O)[C@H](CC(C)C)NC(=O)[C@@H](Cc2ccccc2)NC(=O)[C@H]([C@@H](C)O)NC1=O)[C@@H](C)O — Kd (anti-polymyxin B mouse IgM mAb; SPR; 25 °C): > 25 µM
CC(=O)NCCN(CCC(=O)NCCN(CCC(=O)NCCN(CCC(=O)NCCC(N)=O)C(=O)[C@@H](N)Cc1ccccc1)C(=O)[C@@H](N)Cc1ccccc1)C(=O)[C@@H](N)CCCNC(=N)N — Kd (HIV-1 TAR RNA (18-44); fluorescence; 25 °C, together with: 100-fold excess natural tRNA): 0.7 ± 0.15 µM
NC(=O)CN1C(=O)C(O)(CC(=O)c2cccc(N)c2)c2ccccc21 (stereo not shown) — Kd (uncharacterized protein (Leishmania donovani, UniProt A0A3Q8IA09); ITC; 298 K): 1.05 µM
O=P(O)(O)O[C@@H]1[C@@H](O)[C@@H](O[C@@H]2COC[C@@H]2OP(=O)(O)O)O[C@H](CO)[C@H]1OP(=O)(O)O — Kd (Inositol 1,4,5-trisphosphate-gated calcium channel ITPR1, N-terminal region (Itpr1, Rattus norvegicus, UniProt P29994, del318-332/R504Q); binding, radioligand competition binding; N-terminal fragment R504Q, TEM medium, together with: [3H]IP3): 0.0513 µM
O=C(Nc1cccc(-c2nn[nH]n2)c1)c1cc(-c2ncccn2)cc(C(F)(F)F)c1 — Kd (Beta-lactamase CTX-M-14; surface plasmon resonance; 25 °C): 4.07 ± 0.04 µM
CCCCCCCCCCCC(=O)Nc1ccccc1SSc1ccccc1NC(=O)CCCCCCCCCCC — Kd (ALB; binding, fluorescence quenching; pH 7.4, 308 K): 21.6 µM
CCCCCCCC(=O)N[C@@H](CCN)C(=O)N[C@H](C(=O)N1CCC[C@H]1C(=O)N[C@H]1CCNC(=O)[C@H]([C@@H](C)O)NC(=O)[C@H](CCN)NC(=O)[C@H](CCN)NC(=O)[C@H](CC(C)C)NC(=O)[C@@H](Cc2ccccc2)NC(=O)[C@H](CCN)NC1=O)[C@@H](C)O — Kd (anti-polymyxin B mouse IgM mAb; SPR; 25 °C): 20.3 µM
C=CCNC1=C2C[C@@H](C)C[C@H](OC)[C@H](O)[C@@H](C)[C@@H]3O[C@@]3(C)[C@H](OC(N)=O)[C@@H](OC)/C=C\C=C(/C)C(=O)NC(=CC1=O)C2=O — Kd (Endoplasmin (HSP90B1, Homo sapiens, UniProt P14625); ligand displacement, FP): > 10 µM
CC(C)[C@H](NC(=O)CNC(=O)CNC(=O)[C@@H](NC(=O)[C@H](C)NC(=O)[C@@H]1CCCN1C(=O)[C@H](C)NC(=O)[C@@H](N)CO)[C@@H](C)O)C(=O)N[C@@H](CCCC[N+](C)(C)C)C(=O)N[C@@H](CCCCN)C(=O)N1CCC[C@H]1C(=O)N[C@@H](Cc1c[nH]cn1)C(=O)N[C@@H](CCCNC(=N)N)C(=O)N[C@@H](Cc1ccc(O)cc1)C(=O)N[C@@H](CCCNC(=N)N)C(=O)N1CCC[C@H]1C(=O)O — Kd (PHD finger protein 1, Tudor domain (Homo sapiens, UniProt O43189); binding, isothermal titration calorimetry): 4.2 ± 0.3 µM
O=C(Nc1cccc(-c2nn[nH]n2)c1)c1cc(-c2cccs2)cc(C(F)(F)F)c1 — Kd (Beta-lactamase CTX-M-14; surface plasmon resonance; 25 °C): 50.2 ± 0.6 µM
COc1ccc(C2(SCC(N)C(=O)O)c3ccccc3CCc3ccccc32)cc1 (stereo not shown) — Kd (Kinesin-like protein KIF11, motor domain (KIF11, Homo sapiens, UniProt P52732)): < 0.001 µM and ~0.0009 µM
CC(=O)Oc1c2c(c3ccc4c(c3c1OC(C)=O)C=CC(=O)C4(C)C)OC[C@@H]2C — Kd (Ferritin heavy chain (Homo sapiens, UniProt P02794); binding, SPR): 17.2 µM
O=C(CCc1ccc2n1[B-](F)(F)[N+]1=C(c3ccc[nH]3)C=CC1=C2)NCCCn1cc([C@H]2CN(Cc3ccccn3)C(=O)[C@@H]3CCC[C@H]2N3S(=O)(=O)c2cc(Cl)cc(Cl)c2)nn1 — Kd (Peptidyl-prolyl cis-trans isomerase FKBP4 (FKBP4, Homo sapiens, UniProt Q02790); binding, FP): 0.669 µM

Excerpt of the above:
NC(=O)CN1C(=O)C(O)(CC(=O)c2cccc(N)c2)c2ccccc21 (stereo not shown) — Kd (uncharacterized protein (Leishmania donovani, UniProt A0A3Q8IA09); ITC; 298 K): 1.05 µM
O=P(O)(O)O[C@@H]1[C@@H](O)[C@@H](O[C@@H]2COC[C@@H]2OP(=O)(O)O)O[C@H](CO)[C@H]1OP(=O)(O)O — Kd (Inositol 1,4,5-trisphosphate-gated calcium channel ITPR1, N-terminal region (Itpr1, Rattus norvegicus, UniProt P29994, del318-332/R504Q); binding, radioligand competition binding; N-terminal fragment R504Q, TEM medium, together with: [3H]IP3): 0.0513 µM
